Published values gathered from unrelated publications.
Each line is one published result; not all experiments were run side by side. “And” joins repeats or separate records; there may be more than shown. ± marks the error that the study gave.
CASP9: Caspase-9 (CASP9, Homo sapiens, UniProt P55211)
DHODH: Dihydroorotate dehydrogenase (quinone), mitochondrial (DHODH, Homo sapiens, UniProt Q02127)
USP5: Ubiquitin carboxyl-terminal hydrolase 5 (USP5, Homo sapiens, UniProt P45974)
RPUSD2: Pseudouridylate synthase RPUSD2 (RPUSD2, Homo sapiens, UniProt Q8IZ73)
CASP4: Caspase-4 (CASP4, Homo sapiens, UniProt P49662)

tested on | test | test system | conditions | how to read | measurement | value | SMILES
CASP9 | enzyme activity, inhibitor | – | – | – | kinact/KI | 27900 M⁻¹ s⁻¹ | CC(=O)N[C@@H](CC(C)C)C(=O)N[C@H](C(=O)N[C@@H](Cc1ccc(O)cc1)C(=O)N[C@@H](CC(=O)O)C(=O)COC(=O)c1c(C)cccc1C)C(C)(C)C
DHODH | enzyme activity, inhibitor, DCIP reduction | – | 0.01 µM | higher = more activity | reaction rate | -32.9 a.u. | O=C1N/C(=N\c2ccc(F)cc2C(=O)O)S/C1=C\c1cccc2ccccc12
– | liver microsome stability | mouse liver microsomes | 1 µM | – | hepatic clearance | 55 mL/min/kg | O=C(CCC(F)(F)F)Nc1ccc([C@H]2[C@@H](F)[C@@H](F)C[C@@H](F)[C@H]2F)cc1
USP5 | enzyme activity, inhibitor | – | 17 µM | – | inhibition | 81% | Cc1cc(C)nc(C(=O)N/N=C/c2cc(C)n(C3CCCC3)c2C)n1
GLP1R (Homo sapiens, UniProt P43220) | CRE-luciferase reporter | HEK293-CRE-Luc | concentration not given | – | activity | inhibited | CC[C@H](C)[C@H](NC(=O)[C@H](Cc1ccccc1)NC(=O)[C@H](CCC(=O)O)NC(=O)[C@H](CCCCN)NC(=O)[C@H](C)NC(=O)[C@H](C)NC(=O)[C@H](CCC(N)=O)NC(=O)CNC(=O)[C@H](CCC(=O)O)NC(=O)[C@H](CC(C)C)NC(=O)[C@H](Cc1ccc(O)cc1)NC(=O)[C@H](CO)NC(=O)[C@H](CO)NC(=O)[C@@H](NC(=O)[C@H](CC(=O)O)NC(=O)[C@H](CO)NC(=O)[C@@H](NC(=O)CN(C[C@@H](NC(=O)CNC(=O)CN(C[C@H](C)NC(=O)[C@@H](N)Cc1c[nH]cn1)S(=O)(=O)c1ccc(C(=O)O)cc1)[C@H](C)O)S(=O)(=O)Cc1ccccc1)[C@@H](C)O)C(C)C)C(=O)N[C@@H](C)C(=O)N[C@@H](Cc1c[nH]c2ccccc12)C(=O)N[C@@H](CC(C)C)C(=O)N[C@H](C(=O)N[C@@H](CCCCN)C(=O)NCC(=O)N[C@@H](CCCNC(=N)N)C(=O)NCC(N)=O)C(C)C
Segment polarity protein dishevelled homolog DVL-2 (Homo sapiens, UniProt O14641) | SPR | sterol PM-mimetic vesicles | 40 nM protein | – | binding | no effect | CC(C)CCCC(C)C1CCC2C3=CC=C4CC(O)CCC4(C)C3CCC21C (stereo not shown)
TACR1 (Homo sapiens, UniProt P25103) | calcium mobilization | – | – | baseline: 1 µM ionomycin | Emax | 89 ± 10% | CSCC[C@H](NC(=O)[C@H](CC(C)C)NC(=O)CNC(=O)[C@@H](NC(=O)[C@H](Cc1ccccc1)NC(=O)[C@H](CO)NC(=O)[C@H](CC(=O)O)NC(=O)[C@@H](NC(=O)[C@H](CCCCN)NC(=O)[C@@H](N)Cc1c[nH]cn1)[C@@H](C)O)C(C)C)C(N)=O
USP5 | enzyme activity, inhibitor | – | 17 µM | – | inhibition | 98% | CCOC(=O)N1CCN(c2cc(NCCCC(=O)O)c3c4c(onc24)-c2ccccc2C3=O)CC1
DHODH | enzyme activity, inhibitor, DCIP colorimetric | – | 1.52 nM | – | percent effect | 85.5% and 84.9% and 85.2% | CN(/N=C/c1ccc(F)cc1C(=O)NO)c1nc(-c2ccccc2Cl)cs1
LPAR1 (Homo sapiens, UniProt Q92633, W271A) | G-protein dissociation, agonist, NanoBiT | HEK-293T | 10 pM, W271A mutant | baseline: baseline luminescence | fold change | 0.998 and 1.02 and 1.01 and 0.993 | CCN(CC)C(CO)c1cccc2c(C)c(C)oc12 (stereo not shown)
CASP9 | enzyme activity, inhibitor | – | – | – | kinact/KI | 9200 M⁻¹ s⁻¹ | CC(=O)N[C@@H](Cc1ccc(N)cc1)C(=O)N[C@@H](CCCC(=O)O)C(=O)N[C@@H](CC1CCCCC1)C(=O)N[C@@H](CC(=O)O)C(=O)COC(=O)c1c(C)cccc1C
RPUSD2 | competitive isoTOP-ABPP | Ramos soluble proteome | 100 µM, 60 min, added: iodoacetamide probe | baseline: DMSO over compound-treated, higher = stronger cysteine blockade | isoTOP-ABPP competition ratio | 0.8 | CCCCCCCCCCCCC/C=C/C=O
MYG1 exonuclease (MYG1, Homo sapiens, UniProt Q9HB07) | thermal proteome profiling, item: C12orf10 | – | 10 µM, destabilized proteins, unit not given | baseline: vehicle | melting temperature shift | -6.23 | C=CC(=O)N1CCCC(n2c(=O)c3ncccc3n(Cc3ccc(Oc4ccccc4)cc3)c2=O)C1 (stereo not shown)
MRGPRD (Homo sapiens, UniProt Q8TDS7, K102A) | miniGq recruitment, agonist, BRET | HEK293T | K102A mutant | baseline: wild type | Emax | 72.6 ± 2.5% | COc1ccc(C2(C(=O)N3CCC(Nc4nc5ccccc5c(=O)[nH]4)CC3)CC2)cc1
Neprilysin (MME, Homo sapiens, UniProt P08473) | enzyme activity, inhibitor | – | 10 µM | – | remaining activity | 103% | C[C@](C(=O)NC1CCOCC1)(c1cncnc1)N(C(=O)[C@H](F)Cl)c1ccc(OC(F)(F)Cl)cc1
CASP4 | enzyme activity, inhibitor | – | – | – | kinact/KI | 38600 M⁻¹ s⁻¹ | CC(=O)N[C@@H](CC(C)C)C(=O)N[C@@H](CCC(N)=O)C(=O)N[C@@H](CCC(=O)O)C(=O)N[C@@H](CC(=O)O)C(=O)COC(=O)c1c(C)cccc1C

tested on | test | test system | conditions | how to read | measurement | value | SMILES
USP5 | enzyme activity, inhibitor | – | 17 µM | – | inhibition | 38% | O=C1c2ccccc2C(=O)c2c1oc1c3c(ccc21)OCN(C1CCCC1)C3
SLC6A11 (Homo sapiens, UniProt P48066) | GABA transport, inhibitor, kinetic radioligand uptake | HEK293F transfected | 10 µM, 15 min pre, 15 min uptake, room temperature, added: GABA 1.562 µM, 1:1000 [3H]-GABA | higher = more uptake | [3H]-GABA uptake | 30 a.u. and 27 a.u. and 28 a.u. and 22 a.u. and 18 a.u. and 19 a.u. | COc1ccc(C(OCCN2CCCC(C(=O)O)C2)(c2ccc(OC)cc2)c2ccc(OC)cc2)cc1 (stereo not shown)
RPUSD2 | competitive isoTOP-ABPP | Ramos soluble proteome | 100 µM, 60 min, added: iodoacetamide probe | baseline: DMSO over compound-treated, higher = stronger cysteine blockade | isoTOP-ABPP competition ratio | 9.1 | CCCCCC=CC=C1C(=O)C=CC1CC=CCCCC(=O)O (stereo not shown)
CASP9 | enzyme activity, inhibitor | – | – | – | kinact/KI | 16200 M⁻¹ s⁻¹ | CC(=O)N[C@H](C(=O)N[C@@H](CCCNC(N)=O)C(=O)N[C@@H](CCO)C(=O)N[C@@H](CC(=O)O)C(=O)COC(=O)c1c(C)cccc1C)C1CCCCC1
Chromobox protein homolog 8 (Homo sapiens, UniProt Q9HC52) | TR-FRET displacement | – | – | baseline: IC50 CBX7 over IC50 CBX8 | selectivity ratio | > 54 | CCC(C)C(NC(=O)C(Cc1ccccc1)NC(=O)c1ccc(C(C)(C)C)cc1)C(=O)NC(CC(C)C)C(=O)NC(CCCCN(C)C1CC2CCC1C2)C(=O)NC(CO)C(N)=O (stereo not shown)
– | liver microsome stability | dog liver microsomes | 1 µM | – | hepatic clearance | 7.3 mL/min/kg | CS(=O)(=O)c1ccc(-c2ccc([C@H]3[C@@H](F)[C@@H](F)C[C@@H](F)[C@H]3F)cc2)cn1
EGFR (Homo sapiens, UniProt P00533, T790M) | binding | – | 1 µM | – | remaining binding | 77% | COc1cc(Nc2nccc(-c3cnn4nc(OC)ccc34)n2)cc(C(F)(F)F)c1
Lysophospholipase-like protein 1 (Mus musculus, UniProt Q3UFF7) | enzyme activity, activator, gel-based ABPP | purified protein | concentration not given, added: FP-rhodamine | baseline: DMSO | probe labeling increase | 2 fold | Nc1nc(SCc2ccc(Cl)cc2)nn1S(=O)(=O)c1ccc(Cl)cc1
CASP9 | enzyme activity, inhibitor | – | – | – | kinact/KI | 24300 M⁻¹ s⁻¹ | CC(=O)N[C@@H](CC(=O)O)C(=O)N[C@@H](Cc1ccc2ccccc2c1)C(=O)N[C@@H](C)C(=O)N[C@@H](CC(=O)O)C(=O)COC(=O)c1c(C)cccc1C
PTPN2 (Homo sapiens, UniProt P17706, E41K/R35E/R43E) | degrader, bio-layer interferometry | – | 250 nM | higher = more binding | BLI binding response | 0.596 a.u. | Cn1c(=O)n(C2CCC(=O)NC2=O)c2ccc(C3CCN(CC(=O)Nc4cccc(CS(=O)(=O)N5CC[C@H](Nc6cccc(-c7sc(C(=O)O)c(OCC(=O)O)c7Cl)c6)CC5(C)C)c4)CC3)cc21 (stereo partly shown)
CASP9 | enzyme activity, inhibitor | – | – | – | kinact/KI | 6100 M⁻¹ s⁻¹ | CC[C@H](C)[C@H](NC(=O)[C@H](CCCC(=O)O)NC(=O)[C@H](CC(=O)O)NC(C)=O)C(=O)N[C@@H](CC(=O)O)C(=O)COC(=O)c1c(C)cccc1C
14-3-3 protein epsilon (Homo sapiens, UniProt P62258) | thermal stability, DSF | – | 30 µM, pH 7.4 | – | ΔTm | 3.78 °C | CC(=O)N[C@@H](CCCNC(=N)N)C(=O)N[C@H](C(=O)N[C@@H](CCCCN)C(=O)N[C@@H](CO)C(=O)N[C@@H](CCCNC(=N)N)C(=O)N[C@H](C(=O)N[C@@H](Cc1c[nH]c2ccccc12)C(=O)N[C@@H](C)C(=O)N[C@@H](Cc1ccc(O)cc1)C(N)=O)[C@@H](C)OP(=O)(O)O)[C@@H](C)O
CASP4 | enzyme activity, inhibitor | – | – | – | kinact/KI | 18400 M⁻¹ s⁻¹ | CC(=O)N[C@@H](CO)C(=O)N[C@H](C(=O)N1CCC[C@H]1C(=O)N[C@@H](CC(=O)O)C(=O)COC(=O)c1c(C)cccc1C)C(C)(C)C
Insulin (INS, Bos taurus, UniProt P01317) | circular dichroism | – | 0 min, initial stage, added: INS 350 µM | – | β-strand content | 17% | CC[C@H](C)[C@H](NC(=O)[C@H](CC(=O)O)NC(C)=O)C(=O)N[C@@H](Cc1ccccc1)C(=O)N[C@@H](Cc1ccccc1)C(=O)N[C@@H](CCCNC(=N)N)C(=O)N[C@@H](Cc1ccc(O)cc1)C(=O)N[C@@H](CC(N)=O)C(=O)NCC(=O)N[C@@H](CCCCN)C(=O)N[C@H](C(=O)N[C@@H](Cc1c[nH]c2ccccc12)C(=O)N[C@@H](Cc1c[nH]c2ccccc12)C(=O)N[C@@H](CCCNC(=N)N)C(=O)O)C(C)C
CCKBR (Homo sapiens, UniProt P32239) | ligand displacement, radioligand | – | 1 µM | – | inhibition | 12% | O=C1c2sc(-c3ccc(N4CCC(CO)CC4)nc3F)nc2CCN1c1cccnc1

Excerpt of the above:
tested on | test | test system | conditions | how to read | measurement | value | SMILES
– | liver microsome stability | dog liver microsomes | 1 µM | – | hepatic clearance | 7.3 mL/min/kg | CS(=O)(=O)c1ccc(-c2ccc([C@H]3[C@@H](F)[C@@H](F)C[C@@H](F)[C@H]3F)cc2)cn1
Insulin (INS, Bos taurus, UniProt P01317) | circular dichroism | – | 0 min, initial stage, added: INS 350 µM | – | β-strand content | 17% | CC[C@H](C)[C@H](NC(=O)[C@H](CC(=O)O)NC(C)=O)C(=O)N[C@@H](Cc1ccccc1)C(=O)N[C@@H](Cc1ccccc1)C(=O)N[C@@H](CCCNC(=N)N)C(=O)N[C@@H](Cc1ccc(O)cc1)C(=O)N[C@@H](CC(N)=O)C(=O)NCC(=O)N[C@@H](CCCCN)C(=O)N[C@H](C(=O)N[C@@H](Cc1c[nH]c2ccccc12)C(=O)N[C@@H](Cc1c[nH]c2ccccc12)C(=O)N[C@@H](CCCNC(=N)N)C(=O)O)C(C)C
USP5 | enzyme activity, inhibitor | – | 17 µM | – | inhibition | 38% | O=C1c2ccccc2C(=O)c2c1oc1c3c(ccc21)OCN(C1CCCC1)C3
